Results collected from several papers.
Each line is one published result; not all experiments were run side by side. “And” joins repeats or separate records; there may be more than shown.
Target: Tyrosine-protein kinase Yes (YES1, Homo sapiens, UniProt P07947)

SMILES	assay	system	conditions	scale	measurement	value
C[C@H]1CN(C(=O)c2cn(-c3ccnc(N)n3)c3cc(C#CC4(O)CCCCC4)ccc23)CCN1	enzyme activity, inhibitor, FRET		1 µM		inhibition	-1%
CCn1cc(C(=O)O)c(=O)c2c(N)c(F)c(NC3CCCCC3)cc21	kinase activity		0.1 µM, together with: ATP at Km		inhibition	-11.5%
COCC12C(=O)NC3C4(C(OC)CC1O)C1CC5(O)C(OC)C(O)C(OC(C)=O)(C1C5OC(=O)c1ccccc1)C3(O)C(OC)C24 (stereo not drawn)	kinase activity, inhibitor, ProQinase kinase profiling		25 µM	baseline: control	remaining activity	103% and 106%
CC(C)=CC1OC(C)(C)C2C=C3C(=O)C(Cl)=CC(O)C3C3C(O)C4OC4C(=O)C132 (stereo not drawn)	cell-free assay, competition with immobilised ligand		10 µM		remaining binding	75%
Cc1ccc(C)c(-c2ccc3nc(NC(=O)C4CCCCC4)nn3c2)c1	enzyme activity, Dundee kinase panel		10 µM		remaining activity	101%
C=CC(=O)Nc1cccc(-c2cnc3[nH]cc(C(=O)NC(C)(C)C)c3n2)c1	enzyme activity, inhibitor		0.1 µM		inhibition	15%
COc1cc(Nc2nccc(-c3cnn4nc(OC)ccc34)n2)cc(C(F)(F)F)c1	binding, competition with immobilised ligand		1 µM		remaining binding	99%
CNC(=O)C[C@H](Cc1ccc(C#N)cc1)NC(=O)c1cc(-c2ccc(CN[C@H](C)c3ccc(C)cc3)o2)ccc1Cl	enzyme activity, inhibitor		1 µM		activity vs control	99%
COc1ccc(NC(=O)Nc2ccc3c(c2)C(=O)N(C(C)CO)CC(C)C(CN(C)Cc2ccc4c(c2)OCO4)O3)cc1 (stereo not drawn)	kinase activity, KinaseProfiler		0.03 µM, species human	baseline: control	remaining activity	95%
NC(=O)C[C@H]1CCc2sc3ncnc(O[C@H]4CC[C@H](N5CCOCC5)CC4)c3c21	enzyme activity, inhibitor		10 µM		inhibition	11%
C=CC(=O)N1CCc2ccc(-n3c(=O)ccc4cnc5ccc(-c6cnn(C)c6)cc5c43)cc21	KINOMEscan		1 µM	baseline: DMSO control	remaining binding	100%
C=CC(=O)Nc1cc(-c2nn(C3CCN(CCNC(=O)[C@H](C)CCC45CC6CC(CC(C6)C4)C5)CC3)c3ncnc(N)c23)ccc1Oc1ccccc1	inhibitor, KiNativ profiling	biochemical	2 µM		inhibition	84.9%
Cc1cccc(O[C@H]2CCC[C@@H](C(C)CNCc3ccncc3)C2)c1 (relative stereo)	enzyme activity, inhibitor		10 µM		inhibition	-3%
CCN1CCN(Cc2ccc(NC(=O)c3ccc(C)c(NC(=O)c4cncc(-c5cccs5)c4)c3)cc2C(F)(F)F)CC1	binding, competition with immobilised ligand		1 µM		remaining binding	0.55%
O=C(Nc1ccc(Oc2ncnc3[nH]cc(-c4ccccc4)c23)c(F)c1)c1c2n(n(-c3cc(F)ccc3F)c1=O)CCCC2	enzyme activity, inhibitor		0.5 µM		inhibition	-13%
Cc1ccc(-c2c(/C=C(\C#N)C(=O)NC(C)C)n(CCCO)c3ncnc(N)c23)cc1	cell-free assay, competition with immobilised ligand		1 µM		remaining binding	81%
CNC1C[S+]2CC[S+]3CC[S+](C1)[Ru-4]321([N]=C=S)[n]2c3ccc(OC)cc3c3c4c(c5cc(F)c[n+]1c5c32)C(=O)NC4=O (stereo not drawn)	KinomeScan		0.1 µM	baseline: untreated	remaining binding	100%
COc1c(Cl)cccc1Nc1c(-c2ccncc2C#C[C@@]2(C)CCCN2C(=O)/C=C/CN(C)C)[nH]c2c1C(=O)NCC2	cell-free assay, competition with immobilised ligand		3 µM		remaining binding	82%
Cc1cccc(-c2ccc3nc(NC(=O)C4CCOCC4)nn3c2)c1	enzyme activity, Dundee kinase panel		10 µM		remaining activity	94%
Cc1ccc(C(=O)Nc2ccc(CN3CCN(C)CC3)c(C(F)(F)F)c2)cc1C#Cc1cnc2cccnn12	target engagement, NanoBRET	human cells			Hill slope	0.246
CN1CCN(Cc2ccc(-c3ccc(CO[C@H]4CCC[C@@H]4NC(=O)c4cc(-c5cnn(C)c5)cnc4N)cc3)cc2)CC1	enzyme activity, inhibitor		0.1 µM		inhibition	5%

For quick reference, copied from above:
SMILES	assay	system	conditions	scale	measurement	value
C[C@H]1CN(C(=O)c2cn(-c3ccnc(N)n3)c3cc(C#CC4(O)CCCCC4)ccc23)CCN1	enzyme activity, inhibitor, FRET		1 µM		inhibition	-1%
Cc1ccc(C(=O)Nc2ccc(CN3CCN(C)CC3)c(C(F)(F)F)c2)cc1C#Cc1cnc2cccnn12	target engagement, NanoBRET	human cells			Hill slope	0.246
